Published values pooled from the literature.
Numbered parts are unrelated; each lists some results of a single study. Several values in a cell are separate wells, animals, samples, runs or records.

Set 1
Target: Histone acetyltransferase KAT6A, both winged helices, GST fusion (KAT6A, Homo sapiens, UniProt Q92794, residues 1-181)
Technique: protein binding microarray
Molecule type: double-stranded DNA, one strand shown
Matrix: in vitro
Concentration: not given
Setting: 8-mer, flanks averaged, mean of 2 arrays, mostly near background
Relative to: not given
Reading: higher = stronger binding
Endpoint: E-score
Target sequence (chain): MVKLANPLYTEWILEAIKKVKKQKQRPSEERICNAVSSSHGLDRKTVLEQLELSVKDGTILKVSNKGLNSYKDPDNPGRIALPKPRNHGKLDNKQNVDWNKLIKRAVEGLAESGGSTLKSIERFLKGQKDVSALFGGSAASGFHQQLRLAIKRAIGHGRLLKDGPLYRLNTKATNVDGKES
CCGCATCC: 0.224
ACCTGAAG: -0.144
GAGTTAAA: -0.0875
AACAGGGT: -0.259
AATAGGGG: -0.25

Set 2
Target: TAR DNA-binding protein 43, full length, His tag (TARDBP, Homo sapiens, UniProt Q13148, residues 1-414)
Technique: RNA Bind-n-Seq
Molecule type: RNA
Matrix: in vitro
Concentration: 20 nM
Setting: 6-mer, flanks averaged, single round
With: 150 mM KCl
Relative to: input library
Reading: higher = stronger binding
Endpoint: 6-mer enrichment (R)
UGAGAA: 0.904
UCCAUU: 0.572
CCACGG: 1.09
UAGCGG: 1.68

Set 3
Target: Prothrombin, mature alpha-thrombin (F2, Homo sapiens, UniProt P00734)
Technique: aptamer microarray, sandwich
Molecule type: DNA with 2'F-ANA
Matrix: in vitro
Concentration: 200 nM
Setting: whole 15-mer aptamer, many near background
With: Cy3 exosite-II aptamer, 400 nM
Reading: higher = stronger binding
Endpoint: mean fluorescence intensity
GGTTGGTGTGGTTGG (2'F-ANA at 6 7 8 9 11 12): 625 a.u.
GGTTGGTGTGGTTGG (2'F-ANA at 1 2 3 6 7 8 9 10 11 12 14): 53.8 a.u.
GGTTGGTGTGGTTGG (2'F-ANA at 1 3 5 6 10 11 12): 55.3 a.u.
GGTTGGTGTGGTTGG (2'F-ANA at 1 2 4 6 10 11 12 15): 53.8 a.u.

Further values, each from its own experiment
PhoQ, residues 284 288 289 292 302 303 SMMNNA
fold induction (PhoP, residues 12 14 15 18 19 LWHCS (Escherichia coli, UniProt P23836); Sort-seq, refers to: YFP reporter; E. coli; PhoQ-PhoP variant library, with: 10 µM Mg2+; relative to: high Mg2+ state, higher = stronger signaling): 17.3 and 7.02

Repeated from above (set 3):
GGTTGGTGTGGTTGG (2'F-ANA at 1 2 4 6 10 11 12 15): 53.8 a.u.
GGTTGGTGTGGTTGG (2'F-ANA at 1 3 5 6 10 11 12): 55.3 a.u.
